# Experimental data of several laboratories.
# Parts stem from different laboratories: compare values within a part only. Substitutions count along the parent as printed.

# Study 1
# Target: CCND3, cyclin fold, Cln2 fusion (human)
# Technique: yeast growth competition, sequencing
# Sample: yeast
# Notes: weak parent motif
# Baseline: not given
# Reading: higher = stronger binding
# Parent: E2F1 docking peptide (human); PPVKRRLDLETDH
Substitution,normalised enrichment score
PPVKRRCDLETDH [L7C],0.143
PPVKRRLDLETDP [H13P],0.156
MPVKRRLDLETDH [P1M],0.148
PPGKRRLDLETDH [V3G],0.0707
PPVKRRLPLETDH [D8P],0.0842
PPVQRRLDLETDH [K4Q],0.172
PPVKRRLDLETDS [H13S],0.136
PPVVRRLDLETDH [K4V],0.181
PNVKRRLDLETDH [P2N],0.14
PYVKRRLDLETDH [P2Y],0.112
PPVKRRMDLETDH [L7M],0.102
PPVKRRLDLKTDH [E10K],0.0289
PPVKRRLGLETDH [D8G],0.182
PPVKYRLDLETDH [R5Y],0.102
PPVKRRLDLEVDH [T11V],0.0511
PPHKRRLDLETDH [V3H],0.0947
SPVKRRLDLETDH [P1S],0.147
PPWKRRLDLETDH [V3W],0.119
PPVKRRLDLECDH [T11C],0.11
PPVKRRLDLCTDH [E10C],0.144
PPVKRREDLETDH [L7E],0.0908
PPVKRRLDLLTDH [E10L],0.189
PPVKSRLDLETDH [R5S],0.0808
PPVDRRLDLETDH [K4D],0.112
PPVERRLDLETDH [K4E],0.0857

# Study 2
# Target: Histone acetyltransferase KAT6A, winged helix 1, GST fusion (KAT6A, Homo sapiens, UniProt Q92794, residues 1-85)
# Technique: protein binding microarray
# Form: double-stranded DNA, one strand shown
# Sample: in vitro
# Concentration: not given
# Notes: 8-mer, flanks averaged, mean of 2 arrays, mostly near background
# Baseline: not given
# Reading: higher = stronger binding
# Target sequence (chain): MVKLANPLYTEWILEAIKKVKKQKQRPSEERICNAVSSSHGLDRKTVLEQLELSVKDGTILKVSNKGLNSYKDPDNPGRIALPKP
Strand,E-score
CGACCACG,0.0861
ACCGTGAT,0.0746
ACCGCGCT,0.406
AAAGAGAA,-0.085
TAAGTAAA,-0.133
ATATTCTC,-0.213
ACGCCGGA,0.204
GATACATC,-0.115
GCCGCTAC,0.381
CAGACCGC,0.252
ATAGATTC,-0.194
AGGTCGAA,-0.00927
AAACATTC,-0.199
ACCTACAT,-0.118

# Study 3
# Target: ABI1, truncated, D143A, DHFR fusion (Arabidopsis thaliana)
# Technique: DHFR PCA, deep sequencing
# Sample: yeast
# Notes: methotrexate growth selection, single substitutions
# Together with: (+)-ABA 200 µM
# Baseline: wild-type fitted maximum
# Reading: higher = stronger binding
# Parent: PYL1, truncated, DHFR fusion (Arabidopsis thaliana); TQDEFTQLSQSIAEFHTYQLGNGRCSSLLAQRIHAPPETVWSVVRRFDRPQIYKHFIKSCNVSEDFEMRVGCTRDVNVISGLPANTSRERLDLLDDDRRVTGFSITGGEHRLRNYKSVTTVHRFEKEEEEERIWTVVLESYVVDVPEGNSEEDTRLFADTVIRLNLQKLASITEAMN; partner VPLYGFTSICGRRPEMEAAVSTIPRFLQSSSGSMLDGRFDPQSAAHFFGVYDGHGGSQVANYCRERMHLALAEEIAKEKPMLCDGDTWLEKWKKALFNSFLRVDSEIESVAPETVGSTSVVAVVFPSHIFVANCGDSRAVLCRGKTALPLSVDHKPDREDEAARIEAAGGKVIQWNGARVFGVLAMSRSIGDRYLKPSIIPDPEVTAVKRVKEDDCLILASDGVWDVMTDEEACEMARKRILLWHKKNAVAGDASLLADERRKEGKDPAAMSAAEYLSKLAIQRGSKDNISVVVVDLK
Substitution,relative binding score
S11F,92.3%
E109A,93.2%
D92M,71.3%
K58D,89.4%
P50T,2.59%
A13D,98.3%
E129H,110%
E38T,89.6%
E139D,14.6%
V145I,99.6%
F56A,33.1%
Q31Y,71.4%

# Further values, each from its own experiment
Molecule,target,test,test system,setting,how to read,measurement,result
"PhoQ, residues 284 288 289 292 302 303 SLANKL","PhoP, residues 12 14 15 18 19 LWHCS (Escherichia coli, UniProt P23836)","Sort-seq, measured: YFP reporter",E. coli,"PhoQ-PhoP variant library, together with: 10 µM Mg2+","baseline: high Mg2+ state, higher = stronger signaling",fold induction,0.677

# Excerpt of the above (study 3):
Substitution,relative binding score
E109A,93.2%
D92M,71.3%
K58D,89.4%
P50T,2.59%
A13D,98.3%
